Measurements from different studies.
Protocols differ between the studies behind these lines.

| Structure (SMILES) | organism | observed | technique | strain | time | MIC |
| --- | --- | --- | --- | --- | --- | --- |
| Cc1ccc2nc(C)c(CC(=O)NCc3ccc(N(C)C)cc3)n2c1 | Mycobacteroides chelonae | microbial growth | – | – | 72 h | > 50 µM |
| Nc1ccccc1C(=O)OCC#CCOC(=O)c1ccccc1N | Lodderomyces parapsilosis | microbial growth | broth dilution | ATCC22019 | – | 2 µg/mL |
| Cc1ccc(CNC(=O)C(=O)c2c(C)nc3ccc(C)cn23)cc1 | Mycobacteroides chelonae | microbial growth | – | – | 72 h | > 128 µM |
| C=CCO/N=C(\C(=O)N[C@@H]1C(=O)N(OS(=O)(=O)O)C1(C)C)c1csc(N)n1 | Salmonella enterica Typhi | – | agar dilution | susceptible | – | 0.25 µg/mL |
| Cc1ccc2nc(C)c(C(=O)NCc3ccccc3)n2c1 | Mycobacteroides chelonae | microbial growth | – | – | 72 h | 94.4 µM |
| CC1(C)C(NC(=O)C(=NOC2(C(=O)O)CC2)c2csc(N)n2)C(=O)N1OS(=O)(=O)O (centres unmarked) | Salmonella enterica Typhi | – | agar dilution | susceptible | – | 0.06 µg/mL |
| CN[C@@H]1[C@H](O)[C@H](NC)[C@H]2O[C@]3(O)[C@H](O[C@@H]2[C@H]1O)O[C@H](C)C[C@H]3NC(=O)Cc1cscn1 | Mycolicibacterium fortuitum | microbial growth | – | ATCC6841 | – | 50 µg/mL |
| CC1(C)[C@H](NC(=O)/C(=N\OC2(C(=O)O)CC2)c2nsc(N)n2)C(=O)N1OS(=O)(=O)O | Salmonella enterica Typhi | – | agar dilution | susceptible | – | 0.5 µg/mL |
| CN[C@@H]1[C@H](O)[C@H](NC)[C@H]2O[C@]3(O)[C@H](O[C@@H]2[C@H]1O)O[C@H](C)C[C@H]3NC(=O)CNC(C)(C)C | Burkholderia cepacia | microbial growth | broth dilution | ATCC25416 | – | > 200 µg/mL |
| CCCCCCCCCCCCCC(=O)N[C@H](CCN)C(=O)N[C@@H]1C(=O)N[C@@H](CCN)C(=O)N[C@@H](CC(C)C)C(=O)N[C@@H](CCN)C(=O)N[C@H](Cc2ccccc2)C(=O)N[C@@H](CC(C)C)C(=O)N[C@@H](CCN)C(=O)N[C@H](CCN)C(=O)N[C@@H](C(C)C)C(=O)N[C@@H](CC(=O)O)C(=O)O[C@@H]1C | Burkholderia cepacia | – | – | intrinsically colistin-resistant | – | 64 µg/mL |
| CN[C@@H]1[C@H](O)[C@H](NC)[C@H]2O[C@]3(O)[C@H](O[C@@H]2[C@H]1O)O[C@H](C)C[C@H]3NC(=O)Cc1ccc(F)cn1 | Mycolicibacterium fortuitum | microbial growth | – | ATCC6841 | – | 50 µg/mL |
| Cc1ccc2nc(C)c(C(=O)C(=O)NCc3ccccc3)n2c1 | Mycobacteroides chelonae | microbial growth | – | – | 72 h | > 128 µM |
| C=CCO/N=C(\C(=O)N[C@@H]1C(=O)N(OS(=O)(=O)O)C1(C)C)c1nsc(N)n1 | Salmonella enterica Typhi | – | agar dilution | susceptible | – | 0.5 µg/mL |
| CN[C@@H]1[C@H](O)[C@H](NC)[C@H]2O[C@]3(O)[C@H](O[C@@H]2[C@H]1O)O[C@H](C)C[C@H]3NC(=O)Cc1ccccn1 | Burkholderia cepacia | microbial growth | broth dilution | ATCC25416 | – | > 200 µg/mL |

Excerpt of the above:
| Structure (SMILES) | organism | observed | technique | strain | time | MIC |
| --- | --- | --- | --- | --- | --- | --- |
| CC1(C)[C@H](NC(=O)/C(=N\OC2(C(=O)O)CC2)c2nsc(N)n2)C(=O)N1OS(=O)(=O)O | Salmonella enterica Typhi | – | agar dilution | susceptible | – | 0.5 µg/mL |
